# Experimental data of several laboratories.
# Lines come from different studies, so protocols differ. Values joined by “and” are separate records of one study, mostly repeats; a detail may differ. Numbers after ± are the reported error.
SMILES,organism,assay,test system,conditions,how to read,endpoint,result
Cc1ccc(-c2nc3ccc(C)cn3c2C(=O)C(=O)NCc2ccc(N(C)C)cc2)cc1,Mycolicibacterium vaccae,microbial growth,IMET10670,2 mM,,inhibition zone,19 mm
CCC(CO)NCCNC(CC)CO.O=C(CN1C(=O)CSC1=O)Oc1ccc(C=NNC(=O)c2ccccn2)cc1Br,Mycobacterium tuberculosis,two-drug checkerboard,H37Rv,"concentration not given, unit not given",lower means more synergy,FICI,2
Cc1ccc(NS(=O)(=O)c2c(C(=O)N3CCCCCC3)c(C)n(C)c2C)c(Cl)c1,Human alphaherpesvirus 1,viral infection,HaCaT,"1.235 µM, 36 h",reference: untreated,infection,99.9% and 93.4% and 98.7%
COc1ccc2sc(Nc3nc(-c4ccccn4)cs3)nc2c1,Mycobacterium tuberculosis,"bacterial growth, inhibitor",mmpL3-TetON,,,IC50,2.39 µM
Cc1ccc(CNC(=O)Cc2c(C)nc3ccc(C)cn23)cc1,Mycolicibacterium vaccae,microbial growth,IMET10670,2 mM,,inhibition zone,22 mm
Cc1cc(NCCc2ccccc2)nc(/N=C(\N)Nc2ccc(Cl)cc2)n1,Mycobacterium tuberculosis,"bacterial growth, inhibitor",mmpL3-TetON,,,IC50,0.28 µM
NC(=S)NN=Cc1ccc(OC(=O)CN2C(=O)CSC2=O)cc1.NNC(=O)c1ccncc1,Mycobacterium tuberculosis,two-drug checkerboard,H37Rv,"concentration not given, unit not given",lower means more synergy,FICI,0.516
O=C(CCC1CCCCC1)Nc1cccc(-c2nnc(-c3ccco3)o2)c1,Mycobacterium tuberculosis,microbial growth,,,,IC50,10.5 µM
CCn1c(C)c(CC(=O)N[C@@H](Cc2ccccc2)C(=O)N(C)c2ccccc2)c2ccccc21,HIV-1,viral infection,,,,EC50,0.26 ± 0.04 µM
Cc1cc(Oc2nc(N3CC[C@@H](c4ccncc4)C3)ncc2F)[nH]n1,Mycobacterium tuberculosis,OD,H37Rv PurF CRISPRi knockdown,"0.000244 µM, with: anhydrotetracycline low",,normalised growth,99% and 100%
Cc1c(CN2CCN(C)CC2)cc(-c2ccc(Cl)cc2)n1-c1ccc(Cl)cc1,Mycobacterium tuberculosis,"bacterial growth, inhibitor",mmpL3-TetON,,,IC50,2.46 µM
CC(C)CC(C(=O)N1CC2(CC1C#N)C(=O)Nc1ccccc12)N(C)C(=O)c1cc2c(F)cc(F)c(F)c2[nH]1 (centres unmarked),Human coronavirus 229E,cytopathic effect,MRC5,33.83 nM,,inhibition,100%
Clc1ccc(CC2CON=C(c3cc(Cl)nnc3Oc3cccc(C4CC4)c3)N2)c(Cl)c1 (centres unmarked),Botrytis cinerea,"fungal growth, inhibitor",B05.10 wild type,168 h,,EC50,0.0005 ± 0.0001 µM
Cc1c(CC(=O)N[C@@H](Cc2ccccc2)C(=O)N(C)c2ccc(Cl)cc2)c2ccccc2n1C(C)C,HIV-1,viral infection,,,,EC50,0.33 ± 0.03 µM
CC[C@H](C)[C@H](NC(=O)[C@@H]1CCCN1C(=O)CNC(=O)[C@H](CC(N)=O)NC(=O)CNC(=O)[C@H](CC(=O)O)NC(=O)[C@@H]1CCC(=O)O[C@H](C)[C@H](NC(=O)[C@@H](NC(=O)[C@H](Cc2ccccc2)NC(=O)[C@@H](NC(=O)[C@H](CCCCN)NC(=O)CNC(=O)[C@H](CC(=O)O)NC(=O)CNC(=O)[C@@H](NC(=O)CNC(=O)[C@H](CC(=O)O)NC(=O)[C@@H]2CCC(=O)O[C@H](C)[C@H](NC(=O)[C@@H](NC(=O)[C@H](CC(C)C)NC(=O)[C@H](CCCCN)NC(=O)[C@H](Cc3ccccc3)NC(=O)[C@H](CC(=O)O)NC(=O)CNC(=O)[C@H](CCCCN)NC(=O)[C@H](CC(C)C)NC(=O)[C@H](CO)NC(=O)CN)C(C)C)C(=O)N[C@@H](CCSC)C(=O)N[C@@H](CCCCN)C(=O)N[C@@H](C(C)C)C(=O)N3CCC[C@H]3C(=O)N2)C(C)C)C(C)C)[C@@H](C)O)C(=O)N[C@@H](C)C(=O)N[C@@H](CC(C)C)C(=O)NCC(=O)N1)C(=O)N[C@@H](Cc1ccc(O)cc1)C(=O)N[C@@H]1C(=O)N[C@@H]2C(=O)N[C@@H](CCC(N)=O)C(=O)N[C@@H](C)C(=O)N[C@@H](C(C)C)C(=O)NCC(=O)N[C@@H](CCC(=O)O[C@@H]2C)C(=O)N[C@H](C(=O)NCC(=O)NCC(=O)N[C@@H](CC(=O)O)C(=O)N[C@@H](CC(C)C)C(=O)N2CCC[C@H]2C(=O)N2CCC[C@H]2C(=O)N[C@@H](CC(C)C)C(=O)N[C@@H](Cc2ccccc2)C(=O)O)CCC(=O)O[C@@H]1C,lymphocytic choriomeningitis virus,viral replication,,,,IC50,> 100 µM
Cc1ccc(N(C)C(=O)[C@H](Cc2ccccc2)NC(=O)Cc2c[nH]c3ccc(O)cc23)cc1,HIV-1,viral infection,,,,EC50,0.033 ± 0.005 µM
CCC(CO)NCCNC(CC)CO.O=C(CN1C(=O)CSC1=O)Oc1ccc(C=NNC(=O)c2ccncc2)cc1Cl,Mycobacterium tuberculosis,two-drug checkerboard,H37Rv,"concentration not given, unit not given",lower means more synergy,FICI,1.52
CC(C)n1ncc2c(C(=O)NCC(c3cccs3)N3CCOCC3)cc(-c3ccccc3)nc21 (centres unmarked),Mycobacterium tuberculosis,microbial growth,,,,IC50,0.75 µM
c1ccc2c(c1)nc(CNCC13CC4CC(CC(C4)C1)C3)n2CC1CC1,Streptococcus pneumoniae,growth curve,"ATCC 49619, THY broth",,,bactericidal concentration,16 mg/L
CCOc1cc(C=NNC(=S)Nc2cccc(Cl)c2)ccc1OC(=O)CN1C(=O)CSC1=O.NNC(=O)c1ccncc1,Mycobacterium tuberculosis,two-drug checkerboard,H37Rv,"concentration not given, unit not given",lower means more synergy,FICI,1.22
O=C(C=Cc1cccs1)N1CCN(Cc2ccc3c(c2)OCO3)CC1,Mycobacterium tuberculosis,microbial growth,,,,IC50,1.69 µM
O=C(NCC(F)c1ccc(Cl)cc1Cl)c1cc(Cl)nnc1Oc1cccc(C2CC2)c1 (centres unmarked),Botrytis cinerea,"fungal growth, inhibitor",B05.10 wild type,168 h,,EC50,0.0078 ± 0.0009 µM
Cc1ccc2nc(C)c(C(=O)C(=O)N(C)C)n2c1,Mycolicibacterium vaccae,microbial growth,IMET10670,2 mM,,inhibition zone,0 mm
CCc1ccc(C2CC(C(F)(F)F)n3ncc(C(=O)NCc4cccs4)c3N2)cc1 (centres unmarked),Mycobacterium tuberculosis,microbial growth,,,,IC50,1.1 µM
CN(C(=O)[C@H](Cc1ccccc1)NC(=O)Cc1c[nH]c2ccc(O)cc12)c1ccc(Cl)cc1,HIV-1,viral infection,,,,EC50,0.021 ± 0.008 µM
CCC(CO)NCCNC(CC)CO.CCOc1cc(C=NNC(N)=S)ccc1OC(=O)CN1C(=O)CSC1=O,Mycobacterium tuberculosis,two-drug checkerboard,H37Rv,"concentration not given, unit not given",lower means more synergy,FICI,2
COc1ccc2nc(C)cc(OCC(=O)Nc3ccccc3OC)c2c1,Mycobacterium tuberculosis,"bacterial growth, inhibitor",mmpL3-TetON,,,IC50,1.01 µM
NNC(=O)c1ccncc1.O=C(CN1C(=O)CSC1=O)Oc1ccc(C=NNC(=S)Nc2cccc(Cl)c2)cc1Cl,Mycobacterium tuberculosis,two-drug checkerboard,H37Rv,"concentration not given, unit not given",lower means more synergy,FICI,1.5
CCc1ccn2c(C(=O)N(C)C)c(C)nc2c1,Mycolicibacterium vaccae,microbial growth,IMET10670,2 mM,,inhibition zone,0 mm

# Excerpt of the above:
SMILES,organism,assay,test system,conditions,how to read,endpoint,result
CCn1c(C)c(CC(=O)N[C@@H](Cc2ccccc2)C(=O)N(C)c2ccccc2)c2ccccc21,HIV-1,viral infection,,,,EC50,0.26 ± 0.04 µM
Cc1cc(Oc2nc(N3CC[C@@H](c4ccncc4)C3)ncc2F)[nH]n1,Mycobacterium tuberculosis,OD,H37Rv PurF CRISPRi knockdown,"0.000244 µM, with: anhydrotetracycline low",,normalised growth,99% and 100%
Cc1c(CN2CCN(C)CC2)cc(-c2ccc(Cl)cc2)n1-c1ccc(Cl)cc1,Mycobacterium tuberculosis,"bacterial growth, inhibitor",mmpL3-TetON,,,IC50,2.46 µM
CC(C)CC(C(=O)N1CC2(CC1C#N)C(=O)Nc1ccccc12)N(C)C(=O)c1cc2c(F)cc(F)c(F)c2[nH]1 (centres unmarked),Human coronavirus 229E,cytopathic effect,MRC5,33.83 nM,,inhibition,100%
